# Experimental data gathered from unrelated publications.
# Each numbered part is a random draw from the data of one study; scales do not carry over between parts. Substitutions count along the parent as printed.

# Set 1
# Target: CCND3, cyclin fold, Cln2 fusion (human)
# Method: yeast growth competition, sequencing
# Medium: yeast
# Notes: weak parent motif
# Relative to: not given
# Direction: higher = stronger binding
# Starting sequence: WEE1 docking peptide (human); HKTFRKLRLFDTP
Variant,normalised enrichment score
HDTFRKLRLFDTP [K2D],0.156
HKTFRKMRLFDTP [L7M],0.0958
HKTFRKLRLFDYP [T12Y],0.137
HKTFRKLRLFWTP [D11W],0.126
HKTFRKLRLFDTS [P13S],0.0555
HKTFRKLRLCDTP [F10C],0.191
HKTFRKLRLFATP [D11A],0.12
HKTFRKLRLFTTP [D11T],0.0605
HKTFRKLRLRDTP [F10R],0.149
HKTDRKLRLFDTP [F4D],0.1
HKTFRKLRLFDTF [P13F],0.128
HKTFRKKRLFDTP [L7K],0.142
HKTFRKLRLFDTC [P13C],0.148
NKTFRKLRLFDTP [H1N],0.142
HKTFRKLRLFRTP [D11R],0.12

# Set 2
# Target: DDIT3, bZIP domain (human)
# Method: DHFR protein complementation
# Medium: yeast
# Notes: single substitutions, most at no-binding floor
# Relative to: wild-type JUN-FOS pair
# Direction: higher = stronger binding
# Starting sequence: JUN, bZIP domain (human); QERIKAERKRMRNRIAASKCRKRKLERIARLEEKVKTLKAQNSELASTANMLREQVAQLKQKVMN; partner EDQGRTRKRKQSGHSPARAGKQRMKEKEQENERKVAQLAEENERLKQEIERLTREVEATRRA
Variant,binding fitness
A57Y,-0.0331 natural log
S43M,0.0603 natural log
A46R,0.116 natural log
Q55P,-1.16 natural log
A49P,-1.14 natural log
N42F,-0.941 natural log
T48I,0.0183 natural log
L31Y,-0.46 natural log
Q55V,-0.0802 natural log
E44V,0.00681 natural log
A57N,-0.0258 natural log
Q55Y,-0.0848 natural log
R30T,0.133 natural log
A57E,0.0811 natural log
K39V,0.00751 natural log

# Set 3
# Target: PABPC1L2, full length, GST fusion (mouse, UniProt A0ABA7IW68)
# Method: RNAcompete
# Form: RNA
# Medium: in vitro
# Concentration: 20 nM
# Notes: 7-mer, probes averaged, single round
# Relative to: mean of 7-mers
# Direction: higher = stronger binding
# Construct (chain): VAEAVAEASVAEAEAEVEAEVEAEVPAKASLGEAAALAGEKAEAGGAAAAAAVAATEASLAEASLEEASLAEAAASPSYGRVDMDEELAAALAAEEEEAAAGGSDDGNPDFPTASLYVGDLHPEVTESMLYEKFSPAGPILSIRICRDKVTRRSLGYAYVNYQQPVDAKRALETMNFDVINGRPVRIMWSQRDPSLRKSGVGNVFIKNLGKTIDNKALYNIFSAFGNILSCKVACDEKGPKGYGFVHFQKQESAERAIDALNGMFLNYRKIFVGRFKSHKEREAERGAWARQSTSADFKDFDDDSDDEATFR
Strand,7-mer Z-score
ACGAGAA,0.474
CUUCCUC,-0.47
GCGGAUC,-0.0047
UUAGAUG,-0.2
AUCUUAU,-0.26
UGCGCAC,-0.151
CGGGUAG,0.0732
UUGACUU,-0.324
GGUGAGC,-0.0953
UCUGUCU,-0.441
GCCGAAG,-0.202
CGACACC,-0.244
CUAAAAC,1.72
UUCCUAG,-0.139
AAAGGCG,0.707
AUCGACC,-0.0917
UCCAGUC,-0.298
GAUUAUA,-0.117

# Set 4
# Target: Histone acetyltransferase KAT6A, both winged helices, GST fusion (KAT6A, Homo sapiens, UniProt Q92794, residues 1-181)
# Method: protein binding microarray
# Form: double-stranded DNA, one strand shown
# Medium: in vitro
# Concentration: not given
# Notes: 8-mer, flanks averaged, mean of 2 arrays, mostly near background
# Relative to: not given
# Direction: higher = stronger binding
# Residues (chain): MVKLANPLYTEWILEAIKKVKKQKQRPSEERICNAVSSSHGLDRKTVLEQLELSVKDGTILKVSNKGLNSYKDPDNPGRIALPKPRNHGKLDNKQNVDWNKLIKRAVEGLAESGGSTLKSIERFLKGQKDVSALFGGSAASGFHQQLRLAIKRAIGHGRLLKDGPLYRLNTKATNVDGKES
Strand,E-score
GAAGCAAC,-0.0855
GTGAACGA,-0.094
TCATTCGA,-0.0804
TACCCCTA,-0.252
ATACGCAG,0.0601
CTGATGTC,-0.0532
ACTTCCTC,-0.194
CATAAGGC,0.072
AGTTGGTC,-0.164
CCGCTGTC,0.262
CCTTAAGC,0.0138
